# Measurements gathered from unrelated publications.
# A part holds a random share of what one study measured.

# Series 1 — method: RNA Bind-n-Seq; form: RNA; matrix: in vitro; concentration: 365 nM; reference: no-protein control; direction: higher = stronger binding
# Target: RNA binding protein fox-1 homolog 2, RRM domain, GST-SBP tag (RBFOX2, Homo sapiens, UniProt O43251-10, residues 100-194)
# Setting: natural RNA segment, single round, ends assumed
# Construct (chain): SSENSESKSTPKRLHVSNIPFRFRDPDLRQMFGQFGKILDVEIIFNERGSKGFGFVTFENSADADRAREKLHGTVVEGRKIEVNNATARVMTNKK
Strand,RBNS enrichment (R)
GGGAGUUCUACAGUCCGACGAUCCUCCCCCUGAGGUCACUUCCUGGUAGUGUCCCAAUGCUCUGUGUGCAGUUACUUCAGGUUGAAGUUGCCUUGAUCGCCUGCCCCUCAUCAGGGCUUUUGCUUUUCUUCAAUGGAAUUCUCGGGUGCCAA,2.49
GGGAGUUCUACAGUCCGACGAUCAUUCUGAAAGUUGUCUAGUUCUUCCUUCAUCACACGUGCUUCUCAUCGAAACCCUGGUUUCAGGAUGGAUCAAGUGCUGUUACAGCUCAUGUUCCUUAGACCUGAUUUGUUGGAAUUCUCGGGUGCCAA,0.192
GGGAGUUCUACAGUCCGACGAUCUUUAAGGCAAUUGAAGACACGCAACCUCAGGUAUCCCGCUUUAUAUCGAUAGCUCCUCCCCCGGGAGACAGAGAGUCGCUCUGGUGGAUCAGUGUACAGAUUGUAUAUAGUGGAAUUCUCGGGUGCCAA,0.338
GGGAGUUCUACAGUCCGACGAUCUGGACAUAAGUCUAGGUGUAGAAAUCCUUUCCUUUAUCAUAGAGGAUAUGGUUUACAUUACCGUUUGUUUUCAUUGUGAUUGCCCCUAUGUAACAAUCAUGAAUAUUAGAUGGAAUUCUCGGGUGCCAA,0.413
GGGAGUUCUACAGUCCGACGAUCGCAGGGUGGGUCCAGCCUUGAGCCCCUCCACCCCCAAAUCCUUCCUCUCCUCCCAGUCCCACCCCUUGCCCCACGGAGUCCUGGGGACGCAGUGCCCCAGCUGGGAAGAGUGGAAUUCUCGGGUGCCAA,0.273
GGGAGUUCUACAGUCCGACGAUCCUGCACCAUCAUUGAGGGUUCACACCGCUGUACCACUGUACCACUGCUGUGGGUGGACACAGCAACAUGCCUUCCACCUGAUUUUUAAGAUUUUUUUUUUUUUUACUCAAUGGAAUUCUCGGGUGCCAA,1.05
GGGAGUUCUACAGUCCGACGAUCACCUUAGCAUAAAGGUUUUGGGGAAGGAGGCCGUAGGCCGGCCCGGAGGAAGCAAUUCCACUUGGUUUGACAACUUCUGCCACUCCCAUGUCAGAUGACUUGCACUUCUUUGGAAUUCUCGGGUGCCAA,0.269
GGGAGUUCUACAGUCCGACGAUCUUCUACAGGAAUACCUCUGAGCCUGCCCACCGGGAGCCGCCACAUCACAGCACAAGUGGCUGCAGCCUCCGCGGGGAACCAGGCGGGAGGGACUGAGUGGCCCGCGGGCCUGGAAUUCUCGGGUGCCAA,0.528
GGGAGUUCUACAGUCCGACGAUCCUGGGCUCUUACAGAGCCUCCAUGAGUCAAGCCCCCUCCCCACACCUGGACUCCAGAAUUCACCCUCUCCCCUGCAGUCUGGGUUCCCAGACUGAGUCCUCUCCCCAAAUUGGAAUUCUCGGGUGCCAA,0.411

# Series 2 — method: DNA-protein interaction ELISA; form: double-stranded DNA, one strand shown; matrix: in vitro, bacterial lysate; concentration: not given; setting: whole dsDNA probe, crude lysate protein; reference: highest signal in screen; direction: higher = stronger binding
# Target: Probable WRKY transcription factor 33, C-terminal DNA-binding domain (WRKY33, Arabidopsis thaliana, UniProt Q8S8P5, residues 346-449)
# Residues (chain): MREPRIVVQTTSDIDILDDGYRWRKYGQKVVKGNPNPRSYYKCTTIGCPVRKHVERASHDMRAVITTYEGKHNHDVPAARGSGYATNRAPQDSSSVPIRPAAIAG
Strand,relative absorbance
AAAAAACATTCCTAGTTCATGTTACTAAAA,56.2 % of maximum
AAAAAATGGTCGATCCGCATGCAGTTAAAA,38.8 % of maximum
AAAAAAAGTATCAAAGCCTAGGGCTGAAAA,44.3 % of maximum
AAAAAACCGGCACGATTTGGATATTCAAAA,47.6 % of maximum
AAAAAACGGAAGATCGTGACTGCTAGAAAA,31.3 % of maximum
AAAAAACTCCCTCTCCTCTGTCTTCCAAAA,29.2 % of maximum
AAAAAATTCTAGCTTTTAACTTTAGCAAAA,32 % of maximum
AAAAAAGTAGGTGCTGATGCTGGCCGAAAA,29.2 % of maximum
AAAAAATTACGTTTGTATTTGTAAAA,39.7 % of maximum
AAAAAAGTCTCACCTTTAGTCTTAATAAAA,44.3 % of maximum
AAAAAATTCGTTTTTCGTCTTTCATTAAAA,69 % of maximum
AAAAAAAATTAGTCTCTTCGTCTCCCAAAA,84.6 % of maximum
AAAAAAGGTCTGGACGATCACCGGGAAAAA,39 % of maximum
AAAAAATAAATCGCGGCTACTGCTTCAAAA,47.6 % of maximum
AAAAAACGGTCGCGATCGTTAATGATAAAA,86.9 % of maximum
AAAAAACTGGCGACTGCCAGTGGTAGAAAA,56.8 % of maximum
AAAAAAGTGTTTGTGCTTCTCTCTGTAAAA,39.4 % of maximum
AAAAAACTTCCCTCCTTGTCCTCCCCAAAA,33.2 % of maximum
AAAAAACCAGCCTCAGTCCTGAACAAAAAA,38.5 % of maximum
AAAAAAGGTGAGGAAGTTGGGTATGGAAAA,29.8 % of maximum
AAAAAAGGGGTCCTTTTCCAATGTCTAAAA,29.2 % of maximum
AAAAAAATGTTCAAGCTCGATCTACAAAAA,42.6 % of maximum
AAAAAATTGTGCCTCTGCCCTCGCCTAAAA,32.7 % of maximum
AAAAAAGGAAGTACTGACGATCTGGAAAAA,40.4 % of maximum
AAAAAAGGTAATGCCGGTCCCAGTATAAAA,52.8 % of maximum

# Series 3 — method: protein binding microarray; form: double-stranded DNA, one strand shown; matrix: in vitro; concentration: not given; reference: not given; direction: higher = stronger binding
# Target: Histone acetyltransferase KAT6A, winged helix 2, GST fusion (KAT6A, Homo sapiens, UniProt Q92794, residues 85-181)
# Setting: 8-mer, flanks averaged, mean of 2 arrays, mostly near background
# Target sequence (chain): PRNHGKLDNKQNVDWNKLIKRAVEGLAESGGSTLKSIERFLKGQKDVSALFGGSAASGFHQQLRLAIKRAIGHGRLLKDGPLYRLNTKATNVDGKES
Strand,E-score
ACTCTAAG,-0.262
CATACCCG,-0.0514
CACCGAGC,0.253
CTGCGTCA,-0.0612
AATTCAAC,0.104
ACACTTTG,-0.103
ATAGGTGC,-0.234
GGGGTTGA,-0.0591
AGGCTTAG,0.026
ACGTCAGG,-0.205
CAATTTCG,-0.145
ATCCCTAG,-0.134
CGGAAGAG,0.0136
TCGGAGAA,0.122
GGTGCAAA,0.0856
ACCCATCC,-0.115
ATAAGCGG,-0.0283
CACCATAA,-0.107
AGCGTTCC,-0.072
CTCCGCGC,0.172
AGGTAGCG,-0.0158
CTCGGGCA,0.225
GTGACGGA,-0.125

# Series 4 — method: competition protein-binding microarray; form: double-stranded DNA, one strand shown; matrix: in vitro; concentration: 2 µM; with: Cbf1 competitor, 0.05 µM; direction: higher = stronger binding
# Target: Phosphate system positive regulatory protein PHO4, full length, GST-tagged (PHO4, Saccharomyces cerevisiae, UniProt P07270, residues 1-312)
# Setting: whole 60-bp probe, lowest competitor level
# Construct (chain): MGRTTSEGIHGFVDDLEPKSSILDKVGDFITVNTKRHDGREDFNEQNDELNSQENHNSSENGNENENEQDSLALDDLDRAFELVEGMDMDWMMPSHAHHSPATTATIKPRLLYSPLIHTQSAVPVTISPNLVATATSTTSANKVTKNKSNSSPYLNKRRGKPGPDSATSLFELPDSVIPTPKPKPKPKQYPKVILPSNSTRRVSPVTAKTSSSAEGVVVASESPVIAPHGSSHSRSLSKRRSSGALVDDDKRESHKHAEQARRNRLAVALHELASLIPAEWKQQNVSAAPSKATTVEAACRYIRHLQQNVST
Strand,fluorescence intensity [a.u.]
TACAGAACCCAGATACACATGTAAACAACGAGCATCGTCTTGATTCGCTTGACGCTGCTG,7800
CATACCCAACCTTGCTCCGTGGGTGAAGATATTTGTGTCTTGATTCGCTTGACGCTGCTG,6480
TTGCTCTTCTATTTGCACGTGAAGCATGCTGAAATCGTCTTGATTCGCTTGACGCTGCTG,14700
AAGCGCAAGTGATGGAATGTGATGCTTAAAGGCTATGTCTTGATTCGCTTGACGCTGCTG,4880
TCAACGCCTTTTACCTTGTCCTTTGATGCCTGTCTCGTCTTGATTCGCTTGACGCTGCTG,3330
CATCCCACCCAATCGCACGGGTCTTCTGTGCGAATGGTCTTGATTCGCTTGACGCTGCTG,9770
CCAGGGCCAGGGACTCACGTGTGAAGGTCTGCAGCCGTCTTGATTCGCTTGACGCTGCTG,10200
CATACCCAACCTTGTCACTTGACTTAAGATATTTGTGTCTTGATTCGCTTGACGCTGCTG,3520
GTCTTGTCTCATTGTCACAGGACTTTCCCCACTTCAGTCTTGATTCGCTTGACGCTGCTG,4580
TTATCATTGAAAATTCACGTGATGGCAATATTCCGGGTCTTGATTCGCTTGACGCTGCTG,12100
GTCTTGTCTCATTGGTTCGTGGGTGTCCCCACTTCAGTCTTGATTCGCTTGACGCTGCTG,6780
TCTATGTAACTACGTCTTGTGATGACCGGTATAGCTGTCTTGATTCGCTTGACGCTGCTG,3600
GATGTAATGTCCACACAGGTGATGGAATCATCCATTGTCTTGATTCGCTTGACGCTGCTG,4870
ATGAAACCTAAGTCCCACGTGTCGGTTAAATGGCCAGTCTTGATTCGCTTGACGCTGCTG,19800
TCGCATAGACGAACCCGCGTGCGATTGGTAAATTGCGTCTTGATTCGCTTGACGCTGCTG,8260
ATTTGATATGCCTCTCTCGTGGCCGGCCCATTATATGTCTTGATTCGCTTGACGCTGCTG,7710
TAAACAATACTTAAAAACGTGTTGGAACTTTTACGAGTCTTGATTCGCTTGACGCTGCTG,12500
AAAGCGGTAATTTGTCACTTGACTTCACATATCTATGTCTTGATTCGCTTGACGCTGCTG,3390
TGCGCAACAACTTGAACAGTGGGTGTATGTCTAGAAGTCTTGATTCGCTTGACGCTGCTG,4150
CTTACCGTCCACTTTAACGTGACGGAGCATCAAGATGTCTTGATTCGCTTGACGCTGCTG,5310
CTAACGAAGGTTTGTCACTCGACTTACAAGCCAAGTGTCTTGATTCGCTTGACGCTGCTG,3180
CAGTATCATCGTCATTGGTAGTATTCACTAGGGGACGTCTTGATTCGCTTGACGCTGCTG,3570
TGTTATTATTGACAACATGTGTAAGTTGGTCGAAGAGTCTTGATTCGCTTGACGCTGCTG,9210
